Assay results of several laboratories.
Lines come from different studies, so protocols differ. ± gives the spread as reported.
Organism: human respiratory syncytial virus

| SMILES | test | system | setting | endpoint | result |
| --- | --- | --- | --- | --- | --- |
| O=c1ccn([C@@H]2O[C@](F)(CO)[C@@H](O)[C@H]2O)c(=O)[nH]1 |  | recombinant reporter virus | concentration not given, scale 0 to 100, added: adenosine 100 µM | normalized viral replication | 0 |
| O=C(N1CCC2(CC1)C[C@H](CN1CCCCS1(=O)=O)CCO2)C1(c2ccccc2)CCCC1 | viral replication |  |  | EC50 | > 32000 nM |
| NC(=O)c1ncn([C@@H]2O[C@H](CO)[C@@H](O)[C@H]2O)n1 | viral replication, CPE | HEp-2, A2 passaged with DMSO |  | IC90 | > 41000 nM |
| c1coc(-c2nn3c(Cn4cnc5ccccc54)nnc3s2)c1 | viral replication | HEp-2, Long |  | EC50 | 700 nM |
| Nc1ccn([C@@H]2O[C@@](CO)(CCl)[C@@H](O)[C@H]2F)c(=O)n1 | viral replication, CPE | HEp-2, A2 passaged with DMSO |  | IC90 | 2280 nM |
| N#C[C@@]1(n2ccc(N)nc2=O)O[C@H](CO)[C@@H](O)[C@H]1O | viral replication, cell-based |  |  | EC50 | > 20000 nM |
| c1csc(-c2nn3c(Cn4cnc5ccccc54)nnc3s2)c1 | viral replication | HEp-2, Long |  | EC50 | 200 nM |
| CC(C)CC(=O)OC[C@H]1O[C@@](C#N)(c2ccc3c(N)ncnn23)[C@H](O)[C@@H]1O | viral replication, viral protein ELISA | HEp-2, A2 | 5 days | EC50 | 450 ± 48 nM |

Repeated from above:
| SMILES | test | system | setting | endpoint | result |
| --- | --- | --- | --- | --- | --- |
| c1csc(-c2nn3c(Cn4cnc5ccccc54)nnc3s2)c1 | viral replication | HEp-2, Long |  | EC50 | 200 nM |
